Results pooled from the literature.
Each line is one published result; not all experiments were run side by side. ± gives the spread as reported.
Cell line: HeLa

Cc1ccc(C(=O)Nc2ccc(OS(=O)(=O)c3ccccc3)cc2)cc1  inhibition (cell growth or viability, MTT; 100 µM, 24 h): 44.9%
CC(C)[C@@H]1CN(c2nc(Nc3cc(C(C)(C)C)[nH]n3)c3cc[nH]c3n2)CCN1  GFP-spastin puncta count (live-cell imaging; 10 µM, 1 h, 20 min after furrow ingression): 44 ± 9
CC(C=NN=C(N)[S-])=NN=C(N)[S-].N.N.O=[N+]([O-])[O-].[Co+3]  IC50 (cell growth or viability, MTT): ~22 µM
CCn1c2ccccc2c2cc(C3CC(c4cc5ccccc5oc4=O)=NN3C(N)=O)ccc21 (stereo not drawn)  cells in G0/G1 phase (propidium iodide staining; IC50, 24 h): 76.8%
S=C(NN=Cc1ccc(Cl)s1)Nc1ccccc1  cytotoxic concentration (altered cell morphology, microscopy; confluent cultures): 100 µM
N=C(N)NCCC[C@@H]1NC(=O)[C@H](CCCNC(=N)N)NC(=O)[C@H](CCCNC(=N)N)NC(=O)[C@H](Cc2ccc3ccccc3c2)NC(=O)[C@H](Cc2ccccc2)NC(=O)[C@H](CCC(N)=O)NC(=O)[C@H](CCCNC(=N)N)NC1=O  dextran internalisation increase (flow cytometry; 1 µM, 30 min, together with: dextran-Alexa488 100 µM; relative to: untreated): 15%
Cc1ccc(C(=O)Nc2ccc(OS(=O)(=O)c3ccc(C)cc3)cc2)cc1  inhibition (cell growth or viability, MTT; 100 µM, 24 h): 16.4%
C=C(CC[C@]12O[C@H](C(=O)O)[C@@](O)(C(=O)O)[C@](C(=O)O)(O1)[C@H](OC(=O)/C=C/[C@@H](C)C[C@@H](C)CC)[C@H]2O)[C@@H](OC(C)=O)[C@H](C)Cc1ccccc1  cellular cholesterol reduction (10 µM, 24 h): 25%
CC[C@H](C)[C@H](NC(=O)[C@H](Cc1c[nH]cn1)NC(=O)[C@H](Cc1ccccc1)NC(=O)[C@H]1CSCc2ccccc2CSC[C@@H](NC(=O)[C@@H](NC(=O)c2cccnc2)C(C)C)C(=O)N[C@@H](CC(N)=O)C(=O)N[C@@H](C)C(=O)N1)C(=O)N[C@@H](Cc1c[nH]c2ccccc12)C(=O)N[C@@H](Cc1c[nH]cn1)C(N)=O  autophagy induction (immunoblot p62 and LC3-II; concentration not given, 2 h, acidified Opti-MEM): inactive
Alexa Fluor 546-transferrin  Pearson colocalization coefficient (live-cell confocal microscopy, refers to: rhodamine-labelled compound with transferrin; 1 µM, 30 min, 37 °C, together with: 25 nM Alexa488-transferrin): 0.905
N=C(N)NCCC[C@@H]1NC(=O)[C@H](CCCNC(=N)N)NC(=O)[C@H](CCCNC(=N)N)NC(=O)[C@H](Cc2ccc3ccccc3c2)NC(=O)[C@H](Cc2ccccc2)NC(=O)[C@H](CCC(N)=O)NC(=O)[C@H](CCCNC(=N)N)NC1=O  total cellular uptake (flow cytometry, refers to: Rho-labelled peptide; 5 µM, 2 h, 37 °C, miniPEG linker; relative to: compound set to 100%): 100%
Cc1ccc(S(=O)(=O)Oc2ccc(NC(=O)C3(C)c4ccccc4-c4ccccc43)cc2)cc1  inhibition (cell growth or viability, MTT; 100 µM, 24 h): 33.8%

Repeated from above:
Alexa Fluor 546-transferrin  Pearson colocalization coefficient (live-cell confocal microscopy, refers to: rhodamine-labelled compound with transferrin; 1 µM, 30 min, 37 °C, together with: 25 nM Alexa488-transferrin): 0.905
C=C(CC[C@]12O[C@H](C(=O)O)[C@@](O)(C(=O)O)[C@](C(=O)O)(O1)[C@H](OC(=O)/C=C/[C@@H](C)C[C@@H](C)CC)[C@H]2O)[C@@H](OC(C)=O)[C@H](C)Cc1ccccc1  cellular cholesterol reduction (10 µM, 24 h): 25%
